Published values pooled from the literature.
Compare with care: the assays were run in different laboratories.

SMILES | test | system | setting | scale | quantity | result
N.N.O=C([O-])C1(C(=O)[O-])CCC1.[Pt+2] | refers to: unbound platinum | human, plasma ultrafiltrate | intravenous, AUC 2, median, dose level -4 | – | Cmax | 11300 ng/mL
O[C@H]1CCCN[C@@H]1CCCn1cnc2c(Cl)c(Cl)ccc21 | – | healthy humans, plasma | oral, 150 mg twice daily | – | Cmax at steady state geometric LS mean | 284 ng/mL
Cn1ncc(-c2nc(N[C@H]3CC[C@H](N)CC3)ncc2Cl)c1CC1CC1 | HPLC-MS/MS | human patients | oral, 1 mg, day 5 | – | Cmax | 1.86 ng/mL
Cc1ncc2n1-c1ccc(Cl)cc1C(c1ccccc1F)=NC2 | – | human, plasma | oral, single dose, with: dose, single, rimegepant 300 mg | reference: with over without rimegepant | Cmax ratio | 138%
COc1ccc2c(c1)[C@]13CCCC[C@@H]1[C@H](C2)N(C)CC3 | – | human female | dose not given, day 22 | reference: day 0 | Cmax change | 8.95%
Cc1ncc2n1-c1ccc(Cl)cc1C(c1ccccc1F)=NC2 | – | healthy human volunteers, plasma | oral, CYP3A probe substrate, with: momelotinib | reference: compound alone | Cmax ratio | 91.8%
N[C@@H](Cc1ccc(O)c(O)c1)C(=O)O | – | human, plasma | oral, carbidopa/levodopa every 4 h, with: opicapone | reference: after over before opicapone | Cmax ratio | 1.43
OCc1ncc2n1-c1ccc(Cl)cc1C(c1ccccc1F)=NC2 | – | human, plasma | oral, 7.5 mg of midazolam, day 19, geometric mean, no amenamevir | – | Cmax | 14.9 ng/mL
Cn1nc(NS(C)(=O)=O)c2c(Cl)ccc(-n3c([C@H](Cc4cc(F)cc(F)c4)NC(=O)Cn4nc(C(F)F)c5c4C(F)(F)[C@@H]4C[C@H]54)nc4nc(OCCC(F)(F)F)ccc4c3=O)c21 | – | human | oral, dose not given, single dose | reference: tablet over powder in bottle | Cmax geometric mean ratio | 0.37
CC(F)(F)c1cc(F)ccc1-c1sc2cc(O)ccc2c1Oc1ccc(/C=C/C(=O)O)cc1 | – | human patients, plasma | oral, 450 mg single dose | reference: fasted | Increase in Cmax, high-fat meal | ~30%

A few entries again:
SMILES | test | system | setting | scale | quantity | result
O[C@H]1CCCN[C@@H]1CCCn1cnc2c(Cl)c(Cl)ccc21 | – | healthy humans, plasma | oral, 150 mg twice daily | – | Cmax at steady state geometric LS mean | 284 ng/mL
